Assay results gathered from unrelated publications.
Each line is one published result; not all experiments were run side by side. ± marks the error that the study gave.
CYP3A4: Cytochrome P450 3A4 (CYP3A4, Homo sapiens, UniProt P08684)
UniProt P08684, sequence (whole entry, looked up): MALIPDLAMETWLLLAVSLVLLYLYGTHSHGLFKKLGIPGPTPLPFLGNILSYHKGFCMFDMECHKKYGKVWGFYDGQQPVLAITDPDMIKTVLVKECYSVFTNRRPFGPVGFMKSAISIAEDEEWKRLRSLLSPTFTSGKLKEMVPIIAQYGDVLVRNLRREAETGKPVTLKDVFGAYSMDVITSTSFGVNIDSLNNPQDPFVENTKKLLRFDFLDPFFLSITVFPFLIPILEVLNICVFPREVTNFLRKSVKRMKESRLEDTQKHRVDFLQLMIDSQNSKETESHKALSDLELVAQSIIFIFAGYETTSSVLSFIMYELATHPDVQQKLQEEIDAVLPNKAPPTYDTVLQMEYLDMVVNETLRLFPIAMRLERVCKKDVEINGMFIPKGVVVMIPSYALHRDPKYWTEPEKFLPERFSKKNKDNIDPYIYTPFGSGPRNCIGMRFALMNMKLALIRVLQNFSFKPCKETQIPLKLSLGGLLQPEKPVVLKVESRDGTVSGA
SLCO1B3: Solute carrier organic anion transporter family member 1B3 (SLCO1B3, Homo sapiens, UniProt Q9NPD5)
UniProt Q9NPD5, sequence (whole entry, looked up): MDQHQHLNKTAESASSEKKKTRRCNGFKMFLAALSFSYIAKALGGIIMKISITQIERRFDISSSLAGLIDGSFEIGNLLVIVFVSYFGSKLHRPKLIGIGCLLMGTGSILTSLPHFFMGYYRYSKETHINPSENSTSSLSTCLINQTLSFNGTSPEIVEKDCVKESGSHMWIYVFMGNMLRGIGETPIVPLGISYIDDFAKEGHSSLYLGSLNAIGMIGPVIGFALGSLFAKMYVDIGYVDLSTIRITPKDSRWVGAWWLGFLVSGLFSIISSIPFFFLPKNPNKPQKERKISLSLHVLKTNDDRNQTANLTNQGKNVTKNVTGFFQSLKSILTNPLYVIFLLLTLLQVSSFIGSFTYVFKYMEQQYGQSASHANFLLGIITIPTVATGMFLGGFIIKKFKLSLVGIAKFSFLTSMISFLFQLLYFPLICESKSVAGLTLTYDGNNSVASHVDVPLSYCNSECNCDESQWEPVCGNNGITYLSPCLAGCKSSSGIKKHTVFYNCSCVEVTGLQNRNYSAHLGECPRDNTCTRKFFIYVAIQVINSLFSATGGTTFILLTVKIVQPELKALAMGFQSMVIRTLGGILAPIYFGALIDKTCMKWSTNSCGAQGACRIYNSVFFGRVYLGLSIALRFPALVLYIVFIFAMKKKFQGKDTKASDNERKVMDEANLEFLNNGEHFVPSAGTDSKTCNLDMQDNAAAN
UniProt P61073, sequence (whole entry, looked up): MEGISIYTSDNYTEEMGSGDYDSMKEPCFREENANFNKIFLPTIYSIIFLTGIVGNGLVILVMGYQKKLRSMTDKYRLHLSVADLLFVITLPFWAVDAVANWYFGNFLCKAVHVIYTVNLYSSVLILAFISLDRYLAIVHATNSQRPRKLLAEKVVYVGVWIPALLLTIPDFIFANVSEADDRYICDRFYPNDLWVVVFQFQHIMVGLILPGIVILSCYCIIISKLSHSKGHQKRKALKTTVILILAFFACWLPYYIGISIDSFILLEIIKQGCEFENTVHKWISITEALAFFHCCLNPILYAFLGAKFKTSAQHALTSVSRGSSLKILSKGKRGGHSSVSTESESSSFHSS
UniProt P08246, sequence (whole entry, looked up): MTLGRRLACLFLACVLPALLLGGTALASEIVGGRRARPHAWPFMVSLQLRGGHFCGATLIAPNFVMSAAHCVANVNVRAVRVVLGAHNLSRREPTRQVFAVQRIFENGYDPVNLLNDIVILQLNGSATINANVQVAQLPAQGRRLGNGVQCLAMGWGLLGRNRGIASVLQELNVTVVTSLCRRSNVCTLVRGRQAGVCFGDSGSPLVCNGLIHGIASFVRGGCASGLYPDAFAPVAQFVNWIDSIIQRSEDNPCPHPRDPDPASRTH
UniProt P08835, sequence (whole entry, looked up): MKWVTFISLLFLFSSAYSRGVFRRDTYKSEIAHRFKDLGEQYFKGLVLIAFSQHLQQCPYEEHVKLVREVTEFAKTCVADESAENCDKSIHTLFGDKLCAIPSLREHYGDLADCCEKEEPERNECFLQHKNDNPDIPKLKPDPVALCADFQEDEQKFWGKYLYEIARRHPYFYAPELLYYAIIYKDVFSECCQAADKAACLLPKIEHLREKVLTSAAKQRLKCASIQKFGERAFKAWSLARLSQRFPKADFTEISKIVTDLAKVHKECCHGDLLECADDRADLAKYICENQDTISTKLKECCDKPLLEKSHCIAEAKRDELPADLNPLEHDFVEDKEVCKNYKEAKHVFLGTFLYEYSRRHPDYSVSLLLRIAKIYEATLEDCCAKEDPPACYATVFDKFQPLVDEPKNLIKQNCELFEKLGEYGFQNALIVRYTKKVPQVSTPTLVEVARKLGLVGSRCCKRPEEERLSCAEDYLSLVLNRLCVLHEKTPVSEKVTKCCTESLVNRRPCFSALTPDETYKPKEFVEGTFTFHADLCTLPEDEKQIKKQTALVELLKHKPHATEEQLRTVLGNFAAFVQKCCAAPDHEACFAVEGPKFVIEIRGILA
UniProt Q9UNQ0, sequence (whole entry, looked up): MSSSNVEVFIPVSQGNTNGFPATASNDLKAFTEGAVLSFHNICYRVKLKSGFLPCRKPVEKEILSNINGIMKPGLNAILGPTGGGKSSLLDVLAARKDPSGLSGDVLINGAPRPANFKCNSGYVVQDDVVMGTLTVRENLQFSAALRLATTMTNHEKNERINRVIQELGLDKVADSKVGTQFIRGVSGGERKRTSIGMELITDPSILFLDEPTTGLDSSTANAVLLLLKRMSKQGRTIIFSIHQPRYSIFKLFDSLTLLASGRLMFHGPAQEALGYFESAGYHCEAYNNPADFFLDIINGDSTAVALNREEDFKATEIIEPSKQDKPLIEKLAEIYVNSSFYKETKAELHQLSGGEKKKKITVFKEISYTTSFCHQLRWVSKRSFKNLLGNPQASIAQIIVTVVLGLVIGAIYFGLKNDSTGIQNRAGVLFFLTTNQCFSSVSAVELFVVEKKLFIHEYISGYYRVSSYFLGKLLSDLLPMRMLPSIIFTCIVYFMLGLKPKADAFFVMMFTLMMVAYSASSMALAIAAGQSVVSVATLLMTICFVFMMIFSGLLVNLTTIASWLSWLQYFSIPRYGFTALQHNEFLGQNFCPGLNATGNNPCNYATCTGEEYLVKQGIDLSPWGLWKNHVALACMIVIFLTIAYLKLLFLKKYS

SMILES | target | test | system | conditions | how to read | measurement | value
CNC(=O)Oc1cc(C)c([S+](C)[O-])c(C)c1 (stereo not drawn) | CYP3A4 | – | human liver fractions | 1 µM, 30 min, pH 7.4 | – | metabolised | 3.37%
N=C(N)NCCC[C@@H](NC(=O)[C@H](N)Cc1c[nH]c2ccccc12)C(=O)N[C@H](CCCCN)C(=O)N[C@H](Cc1c[nH]c2ccccc12)C(=O)N[C@H](CCCNC(=N)N)C(=O)N[C@H](CCCCN)C(=O)N[C@H](Cc1c[nH]c2ccccc12)C(=O)N[C@H](CCCNC(=N)N)C(=O)N[C@H](CCCCN)C(=O)N[C@H](Cc1c[nH]c2ccccc12)C(=O)N[C@H](CCCNC(=N)N)C(=O)N[C@H](CCCCN)C(N)=O | chymotrypsin | RP-HPLC | – | 6 h, 37 °C | – | remaining peptide | > 90%
CC[C@H](C)[C@H](NC(=O)[C@H](CCCCN)NC(=O)[C@@H](NC(=O)[C@H](CCC(N)=O)NC(=O)[C@@H](N)CCCNC(=N)N)[C@@H](C)CC)C(=O)N[C@@H](Cc1c[nH]c2ccccc12)C(=O)N[C@@H](Cc1ccccc1)C(=O)N[C@@H](CCC(N)=O)C(=O)N[C@@H](CC(N)=O)C(=O)N[C@@H](CCCNC(=N)N)C(=O)N[C@@H](CCCNC(=N)N)C(=O)N[C@@H](CCSC)C(=O)N[C@@H](CCCCN)C(=O)N[C@@H](Cc1c[nH]c2ccccc12)C(=O)N[C@@H](CCCCN)C(=O)N[C@@H](CCCCN)C(=O)NCC(=O)N[C@@H](CCCCN)C(=O)NCC(=O)N[C@@H](CCC(N)=O)C(=O)N[C@@H](Cc1c[nH]cn1)C(=O)N[C@@H](CCCNC(=N)N)C(=O)O | Neutrophil elastase (ELANE, Homo sapiens, UniProt P08246) | item: cAMP | 16HBE14o- | 25 µM, 30 min, added: HNE 3 µg/mL | – | activity reduction | 26%
C=CCc1ccc(O)c(-c2cc(CC=C)cc(O)c2O)c1 | Broad substrate specificity ATP-binding cassette transporter ABCG2 (ABCG2, Homo sapiens, UniProt Q9UNQ0) | mitoxantrone transport, inhibitor | – | 10 µM, 30 min, added: mitoxantrone 5 µM | relative to: Ko143 0.5 µM | inhibition | 2.5 ± 3.6%
O=C(NC(CSC(Cc1ccccc1)C(=O)NCCCc1cccnc1)Cc1ccc(-c2ccccc2)cc1)c1cccnc1 (stereo not drawn) | CYP3A4 | – | – | 16 µM, 2 h, added: 10 mM H2O2 | relative to: ligand-free enzyme | heme destroyed | 43%
Cc1c(NC(=O)c2ccc3c(c2)CC[C@@H]2C[C@@](O)(C(F)(F)F)CC[C@@]32Cc2ccccc2)ccc[n+]1[O-] | CYP3A4/5, human | time-dependent inhibitor, item: 1'-hydroxymidazolam | pooled human liver microsomes | added: midazolam 23 µM | – | kinact | ~0.00045 s⁻¹
[64Cu+2].c1ccc(CNCc2ccc(CN3CCCNCCNCCCNCC3)cc2)nc1 | CXCR4 | – | NOD/SCID mouse, U87 and U87-stb-CXCR4 xenografts | iv, 90 min, no blocking dose | relative to: U87 tumour over muscle | tumour-to-tissue ratio | 18.4 ± 8.23
CCCS(=O)(=O)c1ccc2[nH]c(NC(=O)OC)nc2c1 | CYP3A4 | – | human liver microsomes | 2 µM, pH 7.4, added: midazolam | – | inhibition | < 0%
CC(CCC(=O)NCC(=O)O)C1CCC2C3C(O)CC4CC(OC5OC(C(=O)O)C(O)C(O)C5O)CCC4(C)C3CCC12C (stereo not drawn) | SLCO1B3 | substrate | transfected HEK293 cells | 1 µM, 2 min | relative to: wild-type HEK293 cells | uptake ratio | 13.9 ± 0.4
CC[C@H](C)[C@H](NC(=O)[C@H](CC(C)C)NC(=O)[C@H](CC(N)=O)NC(=O)CNC(=O)[C@H](CO)NC(=O)[C@H](CC(C)C)NC(=O)[C@@H](NC(=O)[C@H](CC(C)C)NC(=O)[C@H](CCC(N)=O)NC(=O)[C@H](CCC(N)=O)NC(=O)[C@H](CC(C)C)NC(=O)[C@H](CC(C)C)NC(=O)[C@H](CCCNC(=N)N)NC(=O)[C@H](Cc1c[nH]cn1)NC(=O)[C@@H]1CCCN1C(=O)[C@H](CC(=O)O)NC(C)=O)C(C)C)C(=O)N[C@@H](CCCCN)C(=O)N[C@@H](CCC(=O)O)C(=O)N[C@@H](C)C(=O)N[C@H](C(=O)N[C@@H](CCCNC(=N)N)C(=O)N[C@@H](CCCNC(=N)N)C(=O)N[C@@H](CC(C)C)C(=O)N[C@@H](Cc1c[nH]cn1)C(=O)N[C@@H](CO)C(=O)N[C@@H](CCCNC(=N)N)C(N)=O)C(C)C | Chymotrypsinogen A (Bos taurus, UniProt P00766) | proteolytic stability, substrate | – | 100 µM, pH 7.4, added: Chymotrypsinogen A 5 ng/mL | – | time to complete degradation | ≤ 2 h
Cc1cc(C)c(-c2cc(C)c(OP(=O)([O-])OCCC[C@H](C(=O)[O-])N3CCN(CC(=O)[O-])CCN(CC(=O)[O-])CCN(CC(=O)[O-])CC3)cc2C)c(C)c1.[Gd+3] | Albumin (ALB, Homo sapiens, UniProt P02768) | variable temperature NMRD | HSA-bound complex | concentration not given | – | activation enthalpy of water exchange | 10.1 kcal/mol
N=C(N)NCCC[C@@H]1NC(=O)[C@H](CCCNC(=N)N)NC(=O)[C@H](CCCNC(=N)N)NC(=O)[C@H](CCCNC(=N)N)NC(=O)[C@H](Cc2c[nH]c3ccccc23)NC(=O)[C@H](CCCNC(=N)N)NC(=O)[C@H](CCCNC(=N)N)NC(=O)[C@@H](N)CSSC[C@@H](C(N)=O)NC1=O | trypsin | substrate, HPLC | – | pH 7.4, 37 °C | – | complete degradation time | 60 min
CC(C)(O)c1ccccc1CC[C@H](c1cccc(/C=C/c2ccc3ccc(Cl)cc3n2)c1)[S+]([O-])CC1(CC(=O)O)CC1 (stereo partly drawn) | CYP3A4 | – | human liver microsomes | 2 µM, pH 7.4, added: midazolam | – | inhibition | 10.9%
O=C(NCCCCCn1ccc2ccc(F)cc21)Oc1ccccc1F | Albumin (ALB, Sus scrofa, UniProt P08835) | – | porcine protein solution 17.5 mg/mL in PBS | 20 µM, 0.5 h, 37 °C | – | remaining parent compound | 69 ± 5%
CNC(=O)Oc1cc(C)c(S(C)(=O)=O)c(C)c1 | CYP3A4 | – | human liver microsomes | 2 µM, pH 7.4, added: midazolam | – | inhibition | < 0%
CC[C@H](C)[C@H](NC(=O)[C@H](Cc1ccccc1)NC(=O)[C@@H]1CCn2cc(nn2)COCc2cn(nn2)CC[C@H](NC(=O)[C@H](Cc2ccc(O)cc2)NC(=O)[C@H](CO)NC(=O)[C@H](CO)NC(=O)[C@@H](NC(=O)[C@H](CC(=O)O)NC(=O)[C@H](CO)NC(=O)[C@@H](NC(=O)[C@H](Cc2ccccc2)NC(=O)[C@@H](NC(=O)CNC(=O)[C@H](CCC(=O)O)NC(=O)[C@H](C)NC(=O)[C@@H](N)Cc2c[nH]cn2)[C@@H](C)O)[C@@H](C)O)C(C)C)C(=O)N[C@@H](CCC(=O)O)C(=O)NCC(=O)N[C@@H](CCC(N)=O)C(=O)N[C@@H](C)C(=O)N[C@@H](C)C(=O)N[C@@H](CCCCN)C(=O)N1)C(=O)N[C@@H](C)C(=O)N[C@@H](Cc1c[nH]c2ccccc12)C(=O)N[C@@H](CC(C)C)C(=O)N[C@H](C(=O)N[C@@H](CCCCN)C(=O)NCC(=O)N[C@@H](CCCNC(=N)N)C(N)=O)C(C)C | trypsin | – | – | room temperature, added: trypsin 500 ng/µL | relative to: wild-type GLP-1 | half-life increase | 6 fold
CC(C)(O)c1ccccc1CC[C@H](c1cccc(/C=C/c2ccc3ccc(Cl)cc3n2)c1)S(=O)(=O)CC1(CC(=O)O)CC1 | CYP3A4 | – | human liver fractions | 1 µM, 30 min, pH 7.4 | – | metabolised | 17.2%
CC[C@H](C)[C@H](NC(=O)[C@H](C)NC(=O)[C@H](C)NC(=O)[C@H](C)NC(=O)[C@H](Cc1c[nH]cn1)NC(=O)[C@H](CCCCN)NC(=O)[C@H](C)NC(=O)[C@H](C)NC(=O)[C@H](C)NC(=O)[C@H](CCC(=O)O)NC(=O)[C@H](CCCCN)NC(=O)[C@H](C)NC(=O)[C@H](C)NC(=O)[C@H](C)NC(=O)[C@H](CCC(=O)O)NC(=O)[C@H](C)NC(C)=O)C(=O)N[C@@H](C)C(=O)N[C@@H](C)C(=O)N[C@@H](CS)C(=O)N[C@@H](C)C(N)=O | trypsin | proteolysis resistance | – | 4 °C, unit not given, added: Ni(II) | relative to: metal-free HCM | stability enhancement | 0.9
CCN(CC)CCOc1ccc(-c2nnn(Cc3ccc(OC)cc3)c2N)cc1 | Solute carrier family 22 member 2 (SLC22A2, Homo sapiens, UniProt O15244) | transporter uptake, inhibitor | – | – | – | IC50 | 0.663 µM
COc1ccc2cc(NC(=O)c3cc(-c4ccccn4)nc4ccccc34)ccc2c1 | CYP3A4 | enzyme activity, inhibitor | – | – | – | Ki | 94 µM
Cc1cc(C)c(-c2cc(C)c(OP(=O)([O-])OCCC[C@H](C(=O)[O-])N3CCN(CC(=O)[O-])CCN(CP(=O)([O-])O)CCN(CC(=O)[O-])CC3)cc2C)c(C)c1.[Gd+3] | Albumin (ALB, Homo sapiens, UniProt P02768) | variable temperature NMRD | HSA-bound complex | – | – | ZFS modulation correlation time | 30 ps
CC(CCC(=O)NCC(=O)O)C1CCC2C3CCC4CC(OC5OC(C(=O)O)C(O)C(O)C5O)CCC4(C)C3CC(O)C12C (stereo not drawn) | SLCO1B3 | substrate | transfected HEK293 cells | 1 µM, 2 min | relative to: wild-type HEK293 cells | uptake ratio | 5.5 ± 0.4
CC(C)C[C@@H](NC(=O)[C@H](N)Cc1ccccc1)C(=O)NCC(=O)N[C@@H](C(=O)N[C@H](CC(C)C)C(=O)N[C@H](C)C(=O)N[C@H](CC(C)C)C(=O)N[C@H](CC(C)C)C(=O)NCC(=O)N[C@H](Cc1ccc(O)cc1)C(=O)N[C@H](CC(C)C)C(=O)N[C@H](C)C(=O)N[C@@H](C(=O)N[C@H](CCCNC(=N)N)C(=O)N1CCC[C@@H]1C(=O)N[C@H](Cc1ccccc1)C(=O)N[C@H](CC(C)C)C(=O)N1CCC[C@@H]1C(=O)N[C@H](CCCCN)C(=O)N[C@H](CCCCN)C(=O)N[C@H](CCCCN)C(=O)N[C@H](CCC(N)=O)C(=O)N[C@H](CCC(N)=O)C(=O)N[C@H](CCCCN)C(N)=O)C(C)C)C(C)C | chymotrypsin | substrate, HPLC | – | 450 µM, 540 min, 22 °C | – | peptide cleaved | 10%
CN1C(=O)[C@@H](Cc2ccc(O)cc2)NC(=O)CNC(=O)[C@H](Cc2ccc3ccccc3c2)NC(=O)[C@H](CCCNC(=N)N)NC(=O)[C@H]1CCCNC(=O)c1ccc(CNC(=O)CN2CCN(CC(=O)O)CCN(CC(=O)O)CCN(CC(=O)O)CC2)cc1 [gallium-68 labelled] | C-X-C chemokine receptor type 4 (CXCR4, Homo sapiens, UniProt P61073) | PET imaging | human, kidney | – | – | SUVmean | 5.06

A few entries again:
SMILES | target | test | system | conditions | how to read | measurement | value
Cc1c(NC(=O)c2ccc3c(c2)CC[C@@H]2C[C@@](O)(C(F)(F)F)CC[C@@]32Cc2ccccc2)ccc[n+]1[O-] | CYP3A4/5, human | time-dependent inhibitor, item: 1'-hydroxymidazolam | pooled human liver microsomes | added: midazolam 23 µM | – | kinact | ~0.00045 s⁻¹
[64Cu+2].c1ccc(CNCc2ccc(CN3CCCNCCNCCCNCC3)cc2)nc1 | CXCR4 | – | NOD/SCID mouse, U87 and U87-stb-CXCR4 xenografts | iv, 90 min, no blocking dose | relative to: U87 tumour over muscle | tumour-to-tissue ratio | 18.4 ± 8.23
CCCS(=O)(=O)c1ccc2[nH]c(NC(=O)OC)nc2c1 | CYP3A4 | – | human liver microsomes | 2 µM, pH 7.4, added: midazolam | – | inhibition | < 0%
